Published values of several laboratories.
Numbered parts are unrelated; each lists some results of a single study. Changes are numbered by the printed parent chain.

Set 1 — technique: aptamer microarray, sandwich; form: DNA with 2'F-ANA; matrix: in vitro; concentration: 200 nM; with: Cy3 exosite-II aptamer, 400 nM; direction: higher = stronger binding; oligonucleotide: GGTTGGTGTGGTTGG
Target: Prothrombin, mature alpha-thrombin (F2, Homo sapiens, UniProt P00734)
Setting: whole 15-mer aptamer, many near background
Modification | mean fluorescence intensity [a.u.]
2'F-ANA at 1 5 6 10 13 14 15 | 91.5
2'F-ANA at 3 4 5 8 10 11 12 14 | 58.2
2'F-ANA at 1 2 3 4 6 7 10 11 12 14 | 52.3
2'F-ANA at 3 8 9 11 15 | 1020
2'F-ANA at 2 4 5 6 8 9 12 13 14 | 50.8
2'F-ANA at 1 2 3 5 6 7 8 10 12 | 50.3
2'F-ANA at 1 2 4 7 8 9 10 15 | 50.9
2'F-ANA at 2 4 5 6 7 9 10 11 14 15 | 46.5
2'F-ANA at 5 8 9 12 14 15 | 47.7
2'F-ANA at 5 6 8 9 11 12 | 228
2'F-ANA at 2 3 5 6 7 11 12 13 14 15 | 53.7
2'F-ANA at 1 2 3 5 6 8 9 10 12 15 | 71.5
2'F-ANA at 1 2 5 7 12 | 181
2'F-ANA at 1 9 10 11 12 14 15 | 47
2'F-ANA at 1 2 4 5 6 8 10 12 13 14 15 | 53.5
2'F-ANA at 4 5 7 8 10 13 14 | 46.8
2'F-ANA at 3 8 9 11 12 14 15 | 559
2'F-ANA at 1 2 4 5 6 7 8 9 12 15 | 108
2'F-ANA at 1 3 4 5 12 15 | 108

Set 2 — technique: RNA Bind-n-Seq; form: RNA; matrix: in vitro; concentration: not given; relative to: input RNA pool; direction: higher = stronger binding
Target: RING finger protein unkempt homolog, zinc fingers 1-6, GST-SBP tag (UNK, Homo sapiens, UniProt Q9C0B0, residues 30-357)
Setting: RNA with constant flanks, human-mouse chimeric sites, ends assumed
Constant ends, left off below: GGGAGUUCUACAGUCCGACGAUC … CAACAGAGGAUUGAGCAUCA
Target sequence (chain): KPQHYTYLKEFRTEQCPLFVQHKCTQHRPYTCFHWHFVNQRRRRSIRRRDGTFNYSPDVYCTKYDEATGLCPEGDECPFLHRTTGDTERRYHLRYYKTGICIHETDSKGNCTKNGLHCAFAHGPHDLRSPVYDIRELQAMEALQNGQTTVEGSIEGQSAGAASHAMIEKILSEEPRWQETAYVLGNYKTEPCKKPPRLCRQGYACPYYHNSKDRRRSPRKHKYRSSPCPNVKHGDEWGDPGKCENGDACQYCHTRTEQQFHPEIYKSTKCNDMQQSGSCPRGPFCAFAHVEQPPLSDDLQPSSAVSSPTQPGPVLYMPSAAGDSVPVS
Oligonucleotide | bound/input enrichment
CGCUUGGAUGAGGCUGGUGUCACAGAUGAAGUGCUAGAUUCUGCCAUGCAAGCCUUCCUUCUGGAGGUUAUCGUUAAACAUGGGGAGCCGGCACCUUAUUUAUGUAACAAAGAUCCGUUU | 0.106 ratio
CACAGAGCAGCACCUACCCCCUCCUCCUUUCCACACCUGCAAACUCUUUUACUUGGGCUGAAUAUUUAGUGUAAUUACAUCUCAGCUUUGAGGGCUCCCUGUGGCAAAUACCCGGAUAAA | 1.3 ratio
UGUGAACUGUCUCUUGAUUGGGGUCUACAAGAUGACUUUUCCUGGCACAUAUUCCAAAGCAAAGACUUUGUUGCCUGCUGCUUAUUGUCUAAUUUACAGGGAUAUUUAAUUUUGUCAGGU | 0.365 ratio
GUAGCUGGGACUACAGAAGAAUGCUGAAUUUCAGUCACUUGCUGAUGACUUCUGAUGUCCCAGCAAAUAAUGCCACAGUUGACUGCUGAGAAGAUACUUCUGAGGACCCACGUCUAAGGU | 0.119 ratio
AGAUUCCCCCUCCUGAGACCUCCUCCGAAGUUGGAGUCUCUUACAGAUGCCUCAUCCCCUGUUAGUAUUUUAGUUUGGACCACCCAGCCUUGGACGAUUCCCGCCAACCAGGCAAUUUGC | 2.14 ratio
AGGAGGAGGUUAAAGGGUGAGAGUGGGGUGGAAGACUGUGUCAUGGCUCUGGAGACACUGUUCAGUGUCCUGCUUUCUCUUUGCAGACUGAUGGCCCCCUACACACCCUUUCUGACUGAG | 0.0784 ratio
GUGCCCUUCUCGCUGCUGCGGAGCCCGAGCUGGGAACACCCCUUCCGCUGGUACCCUGCACACAGCCGCCUCUUCGAUCAAGCUUUCGGGGUGCCCCGGCUGCCGGAUGAGUGGUCGCAG | 0.0691 ratio
UCCUUGGAACCCAGUCAUAUAGGUGACCUGCAAAAAGCAGACACCAGUAGUCAAGGUGCUUUAGUGUUUCUCUCAAAGGACUACGAAAUAGAAAAUCAAAAUCCCCUGGCCUCUCCUACG | 2.78 ratio

Set 3 — technique: DHFR PCA, deep sequencing; matrix: yeast; with: (+)-ABA 0.0091 µM; relative to: wild-type fitted maximum; direction: higher = stronger binding
Target: ABI1, truncated, D143A, DHFR fusion (Arabidopsis thaliana)
Setting: methotrexate growth selection, single substitutions
Starting sequence: PYL1, truncated, DHFR fusion (Arabidopsis thaliana); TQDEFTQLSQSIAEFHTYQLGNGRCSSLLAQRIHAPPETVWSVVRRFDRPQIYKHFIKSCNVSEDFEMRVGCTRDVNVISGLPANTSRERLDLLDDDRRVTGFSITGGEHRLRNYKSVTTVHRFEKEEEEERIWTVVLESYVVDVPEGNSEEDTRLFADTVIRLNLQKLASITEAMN
Variant | relative binding score [%]
Q167I | -3.01
T39H | 5.09
G71W | 0.948
G107V | -5.16
V40C | -1.43
E152T | 8.57
D95Q | 0.0313
V62I | 17.3
V62K | -0.443
R123G | 85.9
V44I | 11.6
G23N | 25.7
A84H | 72.3
Q31G | -1.26
E128W | 10.1
E139F | -7.56

Set 4 — target: CCNE2, cyclin fold, Cln2 fusion (human); technique: yeast growth competition, sequencing; matrix: yeast; setting: weak parent motif; relative to: not given; direction: higher = stronger binding
Starting sequence: USP37 docking peptide (human); PSAKRSLGFLPQP; partner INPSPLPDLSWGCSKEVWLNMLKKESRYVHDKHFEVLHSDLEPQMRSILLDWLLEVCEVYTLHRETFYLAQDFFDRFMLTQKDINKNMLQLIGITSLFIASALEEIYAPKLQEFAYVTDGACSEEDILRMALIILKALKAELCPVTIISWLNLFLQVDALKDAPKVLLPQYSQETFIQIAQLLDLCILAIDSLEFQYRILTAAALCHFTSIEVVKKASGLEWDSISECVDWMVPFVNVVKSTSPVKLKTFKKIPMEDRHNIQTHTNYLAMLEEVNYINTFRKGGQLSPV
Variant | normalised enrichment score
PSAKRSLGALPQP [F9A] | -0.277
PSAKRSAGFLPQP [L7A] | 0.167
PSAKRSLGFLAQP [P11A] | -0.0426
PSAARSLGFLPQP [K4A] | 0.427
PSAKRALGFLPQP [S6A] | 0.702
PSAKRSLGFLPAP [Q12A] | 0.459

Excerpt of the above (set 1):
Modification | mean fluorescence intensity [a.u.]
2'F-ANA at 1 3 4 5 12 15 | 108
2'F-ANA at 1 2 4 7 8 9 10 15 | 50.9
2'F-ANA at 3 8 9 11 15 | 1020
2'F-ANA at 3 4 5 8 10 11 12 14 | 58.2
2'F-ANA at 2 4 5 6 8 9 12 13 14 | 50.8
